{"data": "Results pooled from the literature", "note": "Each numbered part is a random draw from the data of one study; scales do not carry over between parts.", "sequence of UniProt O75460 (whole entry, looked up)": "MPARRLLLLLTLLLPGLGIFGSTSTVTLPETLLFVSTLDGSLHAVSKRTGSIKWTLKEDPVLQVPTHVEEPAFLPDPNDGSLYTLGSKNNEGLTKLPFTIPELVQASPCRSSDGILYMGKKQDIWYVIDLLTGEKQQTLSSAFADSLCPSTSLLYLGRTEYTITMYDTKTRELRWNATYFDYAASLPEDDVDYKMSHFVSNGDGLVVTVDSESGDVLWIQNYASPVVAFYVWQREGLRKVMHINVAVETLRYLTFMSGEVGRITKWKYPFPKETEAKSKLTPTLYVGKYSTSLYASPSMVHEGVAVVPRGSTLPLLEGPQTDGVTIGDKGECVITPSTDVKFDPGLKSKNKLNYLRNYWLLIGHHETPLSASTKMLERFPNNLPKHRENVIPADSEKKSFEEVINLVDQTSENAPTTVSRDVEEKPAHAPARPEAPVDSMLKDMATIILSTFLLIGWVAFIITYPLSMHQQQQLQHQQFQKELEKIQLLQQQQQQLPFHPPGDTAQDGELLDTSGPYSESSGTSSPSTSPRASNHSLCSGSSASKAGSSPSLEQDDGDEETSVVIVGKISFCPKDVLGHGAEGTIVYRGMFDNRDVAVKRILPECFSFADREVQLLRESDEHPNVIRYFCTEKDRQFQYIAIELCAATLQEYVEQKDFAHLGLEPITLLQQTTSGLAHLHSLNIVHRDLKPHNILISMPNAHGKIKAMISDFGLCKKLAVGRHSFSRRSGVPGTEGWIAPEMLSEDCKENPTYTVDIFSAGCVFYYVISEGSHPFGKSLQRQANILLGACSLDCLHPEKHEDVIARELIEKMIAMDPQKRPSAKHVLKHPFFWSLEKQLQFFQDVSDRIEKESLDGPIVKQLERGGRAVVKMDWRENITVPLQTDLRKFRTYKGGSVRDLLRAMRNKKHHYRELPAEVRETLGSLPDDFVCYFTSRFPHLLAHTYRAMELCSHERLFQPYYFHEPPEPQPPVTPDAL"}
{"data": "Set 1", "target": "Protein C-ets-1 (ETS1, Homo sapiens, UniProt P14921, residues 1-441, full length assumed)", "method": "protein-binding microarray", "form": "double-stranded DNA, one strand shown", "matrix": "in vitro", "concentration": "not given", "notes": "k-mer, scored over probes, only values ≥0.25", "direction": "higher = stronger binding", "Target sequence (chain)": "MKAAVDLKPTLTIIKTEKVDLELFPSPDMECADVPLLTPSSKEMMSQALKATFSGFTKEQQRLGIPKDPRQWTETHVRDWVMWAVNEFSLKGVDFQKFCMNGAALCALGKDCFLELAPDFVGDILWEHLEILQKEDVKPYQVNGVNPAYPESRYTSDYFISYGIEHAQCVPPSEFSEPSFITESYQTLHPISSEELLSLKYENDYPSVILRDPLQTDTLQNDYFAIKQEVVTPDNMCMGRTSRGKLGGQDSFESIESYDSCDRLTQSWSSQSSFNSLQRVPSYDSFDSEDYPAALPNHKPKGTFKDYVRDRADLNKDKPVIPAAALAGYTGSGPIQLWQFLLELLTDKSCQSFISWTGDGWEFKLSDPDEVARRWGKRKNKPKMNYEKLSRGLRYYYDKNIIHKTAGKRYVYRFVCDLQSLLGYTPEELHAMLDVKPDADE"}
{"Strand": "CGTCCGGC", "E-score": 0.46}
{"Strand": "TTCCGGAA", "E-score": 0.492}
{"Strand": "CACTACCG", "E-score": 0.289}
{"Strand": "CATCCGGC", "E-score": 0.492}
{"Strand": "GGATGTGA", "E-score": 0.449}
{"Strand": "CCAGGAAG", "E-score": 0.46}
{"Strand": "AGATATCC", "E-score": 0.336}
{"Strand": "AAGTTCCG", "E-score": 0.44}
{"data": "Set 2", "target": "Interferon regulatory factor 3, full length, phosphomimetic (IRF3, Homo sapiens, UniProt Q14653, residues 1-427, S386D/S396D/S398D/S402D/T404D/S405D)", "method": "protein-binding microarray", "form": "double-stranded DNA, one strand shown", "matrix": "in vitro", "concentration": "2540 nM top", "notes": "60-bp whole probe", "with": "salmon DNA 0.4 mg/ml", "reference": "random background probes", "direction": "higher = stronger binding", "constant ends, left off below": "GCCTAGCAC … GTCTTGATTCGCTTGACGCTGCTG", "sequence of UniProt Q14653 (whole entry, unmodified, looked up)": "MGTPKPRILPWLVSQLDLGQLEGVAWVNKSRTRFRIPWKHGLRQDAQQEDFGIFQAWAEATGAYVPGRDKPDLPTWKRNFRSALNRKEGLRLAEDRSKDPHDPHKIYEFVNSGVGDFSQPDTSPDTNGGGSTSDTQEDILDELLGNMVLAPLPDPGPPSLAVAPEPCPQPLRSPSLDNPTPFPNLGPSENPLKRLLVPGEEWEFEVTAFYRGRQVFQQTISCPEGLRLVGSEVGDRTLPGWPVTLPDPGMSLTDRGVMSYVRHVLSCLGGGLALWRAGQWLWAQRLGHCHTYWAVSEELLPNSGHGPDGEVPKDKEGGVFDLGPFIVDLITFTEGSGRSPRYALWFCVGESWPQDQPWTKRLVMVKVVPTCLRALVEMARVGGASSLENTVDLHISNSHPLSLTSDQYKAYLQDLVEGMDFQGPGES"}
{"Strand": "TACGGTTTCGGTATCGGGACGTGCTAG", "fitted relative affinity [z-score]": 8.06}
{"Strand": "GAGGGTATCGGTCTCGGGACGTGCTAG", "fitted relative affinity [z-score]": 3.03}
{"Strand": "TTAGGACTGGGTACTGGGTTAGTGCTA", "fitted relative affinity [z-score]": -0.815}
{"Strand": "GTAGGTCTCCTACTGCTTTAGTGCTAG", "fitted relative affinity [z-score]": 0.742}
{"Strand": "CAAACACTAGTTTTCATTTTGTGCTAG", "fitted relative affinity [z-score]": 3.75}
{"Strand": "TTAGGTCTCCTCTTCCTTTAGTGCTAG", "fitted relative affinity [z-score]": 0.924}
{"Strand": "TGAGGTTTCGGGTATCGGTTAGTGCTA", "fitted relative affinity [z-score]": 4.21}
{"Strand": "GACGGTTTTCTTCTCCTGACGTGCTAG", "fitted relative affinity [z-score]": 4.15}
{"data": "Set 3", "target": "Centromere-binding protein 1, full length, His-tagged (CBF1, Saccharomyces cerevisiae, UniProt P17106, residues 1-351)", "method": "competition protein-binding microarray", "form": "double-stranded DNA, one strand shown", "matrix": "in vitro", "concentration": "2 µM", "notes": "whole 60-bp probe, lowest competitor level", "with": "Pho4 competitor, 0.05 µM", "direction": "higher = stronger binding", "sequence of UniProt P17106 (whole entry, looked up)": "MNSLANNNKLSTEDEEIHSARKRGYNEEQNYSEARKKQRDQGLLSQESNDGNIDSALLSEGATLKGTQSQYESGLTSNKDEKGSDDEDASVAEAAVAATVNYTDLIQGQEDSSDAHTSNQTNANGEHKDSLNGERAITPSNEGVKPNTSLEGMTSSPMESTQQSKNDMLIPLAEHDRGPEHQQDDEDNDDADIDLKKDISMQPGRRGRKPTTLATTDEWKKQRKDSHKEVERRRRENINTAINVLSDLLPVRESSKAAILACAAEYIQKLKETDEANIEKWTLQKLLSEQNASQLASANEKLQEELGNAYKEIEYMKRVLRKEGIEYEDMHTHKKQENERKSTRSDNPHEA"}
{"Strand": "CTTTCGCTGGAAAAGCACGTCCTCGCTAAGAAATTTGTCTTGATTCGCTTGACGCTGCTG", "fluorescence intensity [a.u.]": 75}
{"Strand": "TGATGATATAAGGTCCACGTGATGGCATTTCAATCTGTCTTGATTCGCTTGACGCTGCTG", "fluorescence intensity [a.u.]": 3250}
{"Strand": "CTTCTGTAAATTTGCGATGTGGGTGGACGCGCCCCGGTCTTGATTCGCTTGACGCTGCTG", "fluorescence intensity [a.u.]": 69.7}
{"Strand": "CTTCTGTAAATTTTTCACGTGAGGTGAAGCGCCCCGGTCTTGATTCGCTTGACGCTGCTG", "fluorescence intensity [a.u.]": 895}
{"Strand": "AGTTTCTTGAAGATCTGCATGACAAATAATGTTTGCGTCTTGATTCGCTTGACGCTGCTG", "fluorescence intensity [a.u.]": 131}
{"Strand": "TTGTAGTTATATACCCACGTTTGCTGGGTCTAACGAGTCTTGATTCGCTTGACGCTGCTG", "fluorescence intensity [a.u.]": 68.5}
{"Strand": "GGAAATCGAACATTTCACGTTCTGCAGAATTTAAAGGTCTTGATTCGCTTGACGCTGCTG", "fluorescence intensity [a.u.]": 98.3}
{"Strand": "ATCACCCCGGTCCCGCACGTGTTCCTGTGCTCCCCTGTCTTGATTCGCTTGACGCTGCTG", "fluorescence intensity [a.u.]": 713}
{"data": "Further values, each from its own experiment"}
{"Compound": "CC(=O)N1CCC(c2ccc(C(=O)NC3=NCCN3)cc2C(F)(F)F)CC1", "target": "Serine/threonine-protein kinase/endoribonuclease IRE1 (ERN1, Homo sapiens, UniProt O75460)", "assay": "cell-free assay, competition with immobilised ligand", "conditions": "1 µM", "quantity": "remaining binding", "value": "60%"}
{"note": "Some of these lines once more (set 1):"}
{"Strand": "CCAGGAAG", "E-score": 0.46}
